Published values collected from several papers.
Each numbered part is a random draw from the data of one study; scales do not carry over between parts.
UniProt Q15375, sequence (whole entry, looked up): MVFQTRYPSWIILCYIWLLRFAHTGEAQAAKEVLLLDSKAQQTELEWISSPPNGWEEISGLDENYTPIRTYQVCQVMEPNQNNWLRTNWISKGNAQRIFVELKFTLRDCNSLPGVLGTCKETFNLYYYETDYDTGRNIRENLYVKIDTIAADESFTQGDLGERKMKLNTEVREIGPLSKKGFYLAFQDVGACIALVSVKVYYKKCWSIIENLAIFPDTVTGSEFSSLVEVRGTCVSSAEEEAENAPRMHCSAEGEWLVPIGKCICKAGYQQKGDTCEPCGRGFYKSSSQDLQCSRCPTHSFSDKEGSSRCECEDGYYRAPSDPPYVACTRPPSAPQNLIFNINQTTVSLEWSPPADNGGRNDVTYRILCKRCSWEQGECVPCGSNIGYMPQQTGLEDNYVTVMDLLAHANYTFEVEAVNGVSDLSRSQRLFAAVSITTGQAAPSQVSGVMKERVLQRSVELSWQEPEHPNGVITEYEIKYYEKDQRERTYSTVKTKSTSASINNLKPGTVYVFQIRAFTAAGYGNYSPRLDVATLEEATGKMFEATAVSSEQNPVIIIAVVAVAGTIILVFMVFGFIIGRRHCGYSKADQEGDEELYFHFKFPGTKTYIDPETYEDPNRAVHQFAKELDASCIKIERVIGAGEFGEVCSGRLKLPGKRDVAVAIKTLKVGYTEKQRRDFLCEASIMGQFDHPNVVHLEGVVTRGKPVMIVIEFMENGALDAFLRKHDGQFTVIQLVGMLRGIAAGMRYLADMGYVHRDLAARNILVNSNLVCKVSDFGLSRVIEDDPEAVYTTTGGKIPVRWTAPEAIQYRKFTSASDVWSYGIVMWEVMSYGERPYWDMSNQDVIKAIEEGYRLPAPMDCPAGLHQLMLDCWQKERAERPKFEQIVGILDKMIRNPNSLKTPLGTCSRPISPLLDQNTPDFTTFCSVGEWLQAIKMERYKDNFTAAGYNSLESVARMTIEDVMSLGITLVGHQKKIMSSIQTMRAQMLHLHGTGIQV
UniProt Q14004, sequence (whole entry, looked up): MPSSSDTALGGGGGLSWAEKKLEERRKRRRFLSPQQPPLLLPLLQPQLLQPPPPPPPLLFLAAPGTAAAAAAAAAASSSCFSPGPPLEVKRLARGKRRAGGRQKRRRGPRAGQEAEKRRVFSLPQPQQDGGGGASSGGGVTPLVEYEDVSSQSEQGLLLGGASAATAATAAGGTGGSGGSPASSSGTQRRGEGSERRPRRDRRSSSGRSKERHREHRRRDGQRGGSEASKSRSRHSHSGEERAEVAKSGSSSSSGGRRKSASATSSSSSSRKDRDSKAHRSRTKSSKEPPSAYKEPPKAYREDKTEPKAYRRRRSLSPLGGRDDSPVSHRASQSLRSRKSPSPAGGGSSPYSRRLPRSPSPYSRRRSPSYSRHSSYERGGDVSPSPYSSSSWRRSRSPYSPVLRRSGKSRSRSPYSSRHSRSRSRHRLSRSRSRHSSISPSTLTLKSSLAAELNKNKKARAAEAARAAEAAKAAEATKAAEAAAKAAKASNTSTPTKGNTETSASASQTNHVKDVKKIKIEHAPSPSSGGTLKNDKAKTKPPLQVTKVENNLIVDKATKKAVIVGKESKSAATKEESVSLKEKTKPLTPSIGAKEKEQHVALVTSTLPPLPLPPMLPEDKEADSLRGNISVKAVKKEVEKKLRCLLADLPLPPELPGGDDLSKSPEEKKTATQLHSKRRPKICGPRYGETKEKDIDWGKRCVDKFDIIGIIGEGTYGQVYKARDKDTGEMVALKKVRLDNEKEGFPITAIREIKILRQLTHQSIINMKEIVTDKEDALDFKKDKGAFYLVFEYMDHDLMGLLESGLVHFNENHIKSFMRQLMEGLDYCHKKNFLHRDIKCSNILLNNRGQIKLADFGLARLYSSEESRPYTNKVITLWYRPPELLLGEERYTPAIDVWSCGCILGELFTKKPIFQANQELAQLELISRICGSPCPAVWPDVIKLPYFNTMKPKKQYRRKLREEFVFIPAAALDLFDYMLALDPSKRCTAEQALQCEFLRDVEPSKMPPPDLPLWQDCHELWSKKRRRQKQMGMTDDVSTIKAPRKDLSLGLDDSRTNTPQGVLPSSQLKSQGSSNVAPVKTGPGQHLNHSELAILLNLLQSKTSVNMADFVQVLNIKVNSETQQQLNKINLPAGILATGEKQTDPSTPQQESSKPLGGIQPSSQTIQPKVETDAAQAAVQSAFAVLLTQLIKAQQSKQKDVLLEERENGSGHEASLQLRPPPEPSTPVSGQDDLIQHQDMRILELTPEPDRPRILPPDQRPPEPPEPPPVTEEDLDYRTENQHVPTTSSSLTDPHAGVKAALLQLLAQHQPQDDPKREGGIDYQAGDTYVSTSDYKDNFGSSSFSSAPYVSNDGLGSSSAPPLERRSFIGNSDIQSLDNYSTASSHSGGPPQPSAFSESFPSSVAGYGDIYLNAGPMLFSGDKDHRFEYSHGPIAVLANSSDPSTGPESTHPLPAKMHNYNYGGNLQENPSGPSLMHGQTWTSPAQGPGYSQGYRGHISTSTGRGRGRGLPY
UniProt O94806, sequence (whole entry, looked up): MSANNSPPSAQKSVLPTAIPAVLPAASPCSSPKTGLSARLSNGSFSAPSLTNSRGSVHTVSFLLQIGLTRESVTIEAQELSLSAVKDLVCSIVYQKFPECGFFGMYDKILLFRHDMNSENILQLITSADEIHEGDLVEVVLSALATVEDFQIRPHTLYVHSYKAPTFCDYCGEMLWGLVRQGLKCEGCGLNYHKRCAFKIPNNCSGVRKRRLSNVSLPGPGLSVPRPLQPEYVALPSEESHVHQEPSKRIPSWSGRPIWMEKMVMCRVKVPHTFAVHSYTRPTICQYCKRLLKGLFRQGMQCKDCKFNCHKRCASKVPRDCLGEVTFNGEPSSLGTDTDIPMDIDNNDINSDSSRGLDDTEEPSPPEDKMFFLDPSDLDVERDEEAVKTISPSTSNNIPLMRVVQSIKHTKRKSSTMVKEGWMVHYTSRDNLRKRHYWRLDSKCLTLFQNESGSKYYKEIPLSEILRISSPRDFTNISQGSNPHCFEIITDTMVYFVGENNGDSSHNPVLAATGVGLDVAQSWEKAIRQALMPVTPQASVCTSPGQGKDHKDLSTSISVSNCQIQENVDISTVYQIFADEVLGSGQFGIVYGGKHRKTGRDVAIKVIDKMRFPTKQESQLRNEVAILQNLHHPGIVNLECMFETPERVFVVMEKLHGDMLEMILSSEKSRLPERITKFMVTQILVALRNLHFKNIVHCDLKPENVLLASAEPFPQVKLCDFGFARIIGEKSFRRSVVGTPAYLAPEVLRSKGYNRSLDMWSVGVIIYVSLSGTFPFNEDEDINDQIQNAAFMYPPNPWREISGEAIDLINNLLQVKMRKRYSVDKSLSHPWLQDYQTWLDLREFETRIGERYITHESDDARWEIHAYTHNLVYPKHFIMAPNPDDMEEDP

Block 1
Observed: AlphaScreen signal
Method: AlphaScreen counter screen
Matrix: His6 peptide without bromodomain
Concentration: 50 µM
Setting: assay interference check
`O=C(CSc1ccc2nnc(-c3cccc(F)c3)n2n1)NCc1ccc(F)cc1` gave an inhibition of 8.45%.
`O=S(=O)(O)c1cccc(NN=Nc2ccc(Br)cc2)c1` has an inhibition of 18.8%.
The inhibition of `COc1ccc(Nc2nccc(-c3cccc(C#N)c3)n2)cc1` is reported as 6.7%.
For `N#CC1(c2ccc(NC(=O)c3cccnc3NCc3ccncc3)cc2)CCCC1`, the inhibition was 13.9%.

Block 2
Cell line: mouse MPNST tumor cells
Method: high-content immunofluorescence imaging
Refers to: nuclear SOX9
Concentration: 10 µM
Time: 12 h
Setting: mean of 2 replicates
Relative to: DMSO control
Direction: higher = more nuclear SOX9
`CCCCc1cc2ccccc2c(OCCN(C)C)n1`: “nuclear SOX9 intensity” 143 % of DMSO.
`COc1ccc(S(=O)(=O)c2cc(OC)ccc2S(=O)(=O)c2ccc([C@H](C)NS(C)(=O)=O)cc2)cc1` — result for “nuclear SOX9 intensity”: 162 % of DMSO.
Under “nuclear SOX9 intensity”, `NS(=O)(=O)c1cc2c(cc1Cl)NCNS2(=O)=O` is recorded as 109 % of DMSO.
`Cc1ccc(NC(=O)c2cccc(C(C)(C)C#N)c2)cc1Nc1ccc2ncn(C)c(=O)c2c1` — result for “nuclear SOX9 intensity”: 42.8 % of DMSO.
`Cc1cnc(-c2cc(N3CCN(C(=O)CCS(C)(=O)=O)CC3)ncc2Cl)c(C)c1` — result for “nuclear SOX9 intensity”: 93.9 % of DMSO.

Block 3
SMILES: CN([C@@H]1CCc2c(CC(=O)O)c3ccccc3n2C1)S(=O)(=O)c1ccc(F)cc1
Observed: cell-free assay
Method: competition with immobilised ligand
Concentration: 1 µM
The remaining binding was 94% (Serine/threonine-protein kinase D3 (PRKD3, Homo sapiens, UniProt O94806)).
The remaining binding was 95% (Cyclin-dependent kinase 13 (CDK13, Homo sapiens, UniProt Q14004)).
Ephrin type-A receptor 7 (EPHA7, Homo sapiens, UniProt Q15375) — remaining binding: 100%.

Block 4
Target: Activin receptor type-1-like (ACVRL1, Homo sapiens, UniProt P37023)
UniProt P37023, sequence (whole entry, looked up): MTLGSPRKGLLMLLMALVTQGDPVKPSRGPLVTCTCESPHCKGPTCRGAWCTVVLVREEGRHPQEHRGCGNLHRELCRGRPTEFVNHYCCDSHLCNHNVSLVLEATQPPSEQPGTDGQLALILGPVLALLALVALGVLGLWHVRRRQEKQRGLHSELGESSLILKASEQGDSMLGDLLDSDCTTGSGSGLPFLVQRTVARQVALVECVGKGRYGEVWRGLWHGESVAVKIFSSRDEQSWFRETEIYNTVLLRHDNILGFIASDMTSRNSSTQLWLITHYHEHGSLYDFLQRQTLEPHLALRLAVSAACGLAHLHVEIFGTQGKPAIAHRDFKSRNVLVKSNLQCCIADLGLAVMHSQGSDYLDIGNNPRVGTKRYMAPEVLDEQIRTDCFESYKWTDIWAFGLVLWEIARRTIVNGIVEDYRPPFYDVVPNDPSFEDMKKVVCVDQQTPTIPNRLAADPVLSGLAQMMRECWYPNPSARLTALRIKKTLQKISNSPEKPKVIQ
Observed: enzyme activity
Mode: inhibitor
Concentration: 0.5 µM
Relative to: control
With `COc1cc2nccc(Oc3ccc(NC(=S)NC(=O)c4ccccc4C)cc3)c2cc1OC` the remaining activity was 91.7%.
The remaining activity of `COc1cc2ncnc(Nc3ccc(F)c(Cl)c3)c2cc1OCCCN1CCOCC1` is reported as 96.9%.
The remaining activity of `Nc1ncnc2n[nH]c(Nc3ccc(F)cc3)c12` is reported as 108%.
With `O=S(=O)(c1cccc2cnccc12)N1CCCNCC1` the remaining activity was 111%.
`O=C1NC(=O)C(c2cn(CCCn3ccnc3)c3ccccc23)=C1Nc1ccccc1` gave a remaining activity of 95.9%.
`Cn1c2ccccc2c2c3c(c4c5ccccc5n(CCC#N)c4c21)CNC3=O` gave a remaining activity of 73.6%.
`Nc1ccc2ncnc(NCCc3ccc(Oc4ccccc4)cc3)c2c1` gave a remaining activity of 93.5%.
The remaining activity of `CN(C)c1ccc(C=C2C(=O)Nc3ccccc32)cc1` is reported as 104%.
For `Cc1cccc(-c2[nH]c(C(C)(C)C)nc2-c2ccc3c(c2)OCO3)n1`, the remaining activity was 127%.
For `COc1ccc(CNC(=O)Nc2ncc([N+](=O)[O-])s2)cc1`, the remaining activity was 106%.
With `OCC(O)CCON=C1C(c2c(O)[nH]c3ccccc23)=Nc2ccccc21` (centres unmarked) the remaining activity was 103%.
The remaining activity of `Cc1ccc(Nc2nccc(N(C)c3ccc4c(C)n(C)nc4c3)n2)cc1S(N)(=O)=O` is reported as 102%.
For `Cn1sc(=O)n(Cc2ccccc2)c1=O`, the remaining activity was 117%.
For `COc1ccc(C(=O)Nc2sc3c(c2C(N)=O)CCCC3)cc1OC`, the remaining activity was 110%.

Block 5
Species: mouse
Matrix: microsomes or S9
Concentration: 2 µM
Time: 0.5 h
The remaining compound of `CCOC(=O)c1[nH]c(C)c(C(=O)CN(CC(C)C)S(=O)(=O)c2ccc(F)cc2)c1C` is reported as 0%.
`CCOc1cc(C(=O)OCc2cc(=O)n3oc(C)cc3n2)cc(OCC)c1OCC` has a remaining compound of 0.188%.
For `CSC1=N/C(=C\c2ccc(C(=O)O)cc2)C(=O)S1`, the remaining compound was over 99%.

Repeated from above (block 5):
The remaining compound of `CCOC(=O)c1[nH]c(C)c(C(=O)CN(CC(C)C)S(=O)(=O)c2ccc(F)cc2)c1C` is reported as 0%.
`CCOc1cc(C(=O)OCc2cc(=O)n3oc(C)cc3n2)cc(OCC)c1OCC` has a remaining compound of 0.188%.
